Measurements from different studies.
Compare with care: the assays were run in different laboratories. ± gives the spread as reported.

CCCC[C@H](NC(C)=O)C(=O)N[C@H]1CCC(=O)NC[C@@H](C(=O)N[C@@H](Cc2c[nH]c3ccccc23)C(N)=O)NC(=O)[C@H](CCCNC(=N)N)NC(=O)[C@@H](Cc2ccccc2)NC(=O)[C@H](Cc2c[nH]cn2)NC1=O
Tmax (CD Sprague Dawley rat, male, plasma; subcutaneous, 5.0 mg/kg daily, day 1): 1 h

Cc1nc2cccc(OCC(C)(C)C(=O)NC(C)C)c2c(N)c1C(=O)O
Tmax (male Sprague-Dawley rat, plasma; dietary, 100 mg/kg/day, day 7): 3 h

CC(C)=CCC[C@](C)(O[C@@H]1O[C@H](CO)[C@@H](O)[C@H](O)[C@H]1O)[C@H]1CC[C@]2(C)[C@@H]1[C@H](O)C[C@@H]1[C@@]3(C)CC[C@H](O)C(C)(C)[C@@H]3[C@@H](O[C@@H]3O[C@H](CO)[C@@H](O)[C@H](O)[C@H]3O[C@@H]3O[C@@H](C)[C@H](O)[C@@H](O)[C@H]3O)C[C@]12C
Tmax (Sprague Dawley rat, male, plasma; oral, 45 mg/kg, frozen ginseng extract): 8 ± 1.2 h

Cn1nnc2c(C(N)=O)ncn2c1=O
Tmax (male athymic rat, intracranial U87 glioma, tumour extracellular fluid; oral, 50 mg/kg, uncorrected microdialysis, median, with: before cediranib): 1.5 h

CC(C)=CCC[C@](C)(O[C@@H]1O[C@H](CO)[C@@H](O)[C@H](O)[C@H]1O)[C@H]1CC[C@]2(C)[C@@H]1[C@H](O)C[C@@H]1[C@@]3(C)CC[C@H](O)C(C)(C)[C@@H]3[C@@H](O[C@@H]3O[C@H](CO)[C@@H](O)[C@H](O)[C@H]3O)C[C@]12C
Tmax (Sprague Dawley rat, male, plasma; oral, 25 mg/kg, mixture of pure ginsenosides): 0.08 ± 0.02 h

O=C(O)C[C@H](O)C[C@H](O)/C=C/c1c(C2CC2)nc2ccccc2c1-c1ccc(F)cc1
Tmax (male Sprague Dawley rat, NASH, plasma; oral, 2.5 mg/kg, median, with: silymarin 500 mg/kg oral): 1.25 h

CCN1CCN(c2ccc(Nc3cc(N(C)C(=O)Nc4c(Cl)c(OC)cc(OC)c4Cl)ncn3)cc2)CC1
Tmax (Crl:WI(Han) rat, juvenile female, plasma; oral gavage, 0.3 mg/kg/day, postnatal day 17): 1 h

C=CC(=O)Nc1cc(Nc2nccc(-c3cn(C)c4ccccc34)n2)c(OC)cc1N(C)CCN(C)C
Tmax (Sprague-Dawley rat, male, plasma; oral, 10 mg/kg, with: avitinib 30 mg/kg single dose on day 7): 6.8 ± 1.79 h

CC(C)=CCC[C@](C)(O[C@@H]1O[C@H](CO[C@@H]2O[C@H](CO)[C@@H](O)[C@H](O)[C@H]2O)[C@@H](O)[C@H](O)[C@H]1O)[C@H]1CC[C@]2(C)[C@@H]1[C@H](O)C[C@@H]1[C@@]3(C)CC[C@H](O[C@@H]4O[C@H](CO)[C@@H](O)[C@H](O)[C@H]4O[C@@H]4O[C@H](CO)[C@@H](O)[C@H](O)[C@H]4O)C(C)(C)[C@@H]3CC[C@]12C
Tmax (Sprague Dawley rat, male, plasma; oral, 86 mg/kg, white ginseng extract): 8 ± 2.5 h

CS(=O)(=O)c1ccc(-c2cnc(N)c(-c3ccc(C(F)(F)F)nc3)c2)cc1
Tmax (pregnant female Sprague-Dawley rat, plasma; oral, 3 mg/kg/day, gestation day 17): 8 h

COc1cccc(-c2n[nH]c(SCc3ccccn3)n2)c1OC
Tmax (Sprague-Dawley rat, both sexes, plasma; oral, diet, 100 mg/kg/day, day 7): 12 h
